{"data": "Measured values gathered from unrelated publications", "note": "Each line is one published result; not all experiments were run side by side. “And” joins repeats or separate records; there may be more than shown. Numbers after ± are the reported error."}
{"SMILES": "CC(C)C[C@H](NC(=O)[C@@H](N)CO)C(=O)N[C@@H](Cc1c[nH]c2ccccc12)C(=O)N[C@@H](CCC(=O)O)C(=O)N[C@@H](CC(N)=O)C(=O)N[C@@H](Cc1ccccc1)C(=O)N[C@@H](CCCCN)C(=O)N[C@@H](CC(N)=O)C(=O)N[C@@H](C)C(=O)NCC(=O)N[C@@H](CCCCN)C(N)=O", "organism": "all tested microorganisms", "endpoint": "geometric mean MIC", "value": "256 µM"}
{"SMILES": "CCCCCCCCC=CCCCCCCCCNC(=O)C(N)Cc1ccc(OP(=O)(O)COC(CO)Cn2ccc(N)nc2=O)cc1 (stereo not shown)", "organism": "varicella-zoster virus", "test": "viral replication", "system": "VZV-ORF57-Luc, mouse", "setting": "dose not given", "endpoint": "duration of rebound suppression", "value": "≤ 11 days"}
{"SMILES": "CCOC(=O)C1(Cc2ccccc2C#N)Oc2cc(F)ccc2N(Cc2ccccc2C#N)C1=O (stereo not shown)", "organism": "Amaranthus retroflexus", "test": "fresh weight, greenhouse postemergence", "setting": "postemergence, 150 g ai/ha, 21 days", "endpoint": "inhibition", "value": "68.2 ± 4.15%"}
{"SMILES": "CC(C)[C@H](NC(=O)[C@H](CO)NC(=O)[C@@H](N)CC(=O)O)C(=O)N[C@H]1CSC(=O)[C@H](Cc2ccccc2)NC(=O)[C@H](Cc2ccc(O)cc2)NC(=O)[C@H](CO)NC(=O)[C@H](C)NC1=O", "organism": "Staphylococcus epidermidis", "test": "safranin staining", "system": "RP62A", "setting": "10 µM, 37 °C", "scale": "baseline: DMSO control", "endpoint": "biofilm dispersal", "value": "46.7%"}
{"SMILES": "COc1ccc(Cn2c3cc(=O)n(Cc4cccc(Cl)n4)c(C)c3c(=O)n2-c2ccccn2)cc1", "organism": "human respiratory syncytial virus", "system": "recombinant reporter virus", "setting": "concentration not given, scale 0 to 100, with: cytidine 3.7 µM", "endpoint": "normalized viral replication", "value": 0}
{"SMILES": "CC(C)[C@H]1NC(=O)[C@H](Cc2ccccc2)NC(=O)[C@@H](C(C)C)NC(=O)[C@@H](C)NC(=O)[C@H](CO)NC(=O)[C@@H](Cc2c(-c3ccc(-c4ccccc4)c4ccccc34)[nH]c3ccccc23)NC(=O)[C@@H](CO)NC1=O", "organism": "Vibrio vulnificus", "test": "broth dilution", "endpoint": "MIC90", "value": "> 50 µM"}
{"SMILES": "CCN(CC)CC#CCNc1ccnc2cc(Cl)ccc12", "organism": "Plasmodium falciparum", "test": "parasite growth, LDH", "system": "RF12", "scale": "baseline: IC50 RF12 over IC50 3D7", "endpoint": "resistance index", "value": 1.5}
{"SMILES": "CCN(CC)CCO.O=C(O)C(Cl)Cl", "organism": "Amaranthus retroflexus", "test": "herbicidal activity", "setting": "15 mg/mL, 21 days, pre-emergence greenhouse", "endpoint": "inhibition", "value": "0%"}
{"SMILES": "C[N+]1=C2C(c3ccc(Cl)cc3)=[N+]([O-])c3ccccc3N2CCC1", "organism": "Bacteroides fragilis", "endpoint": "MIC90", "value": "8 µg/mL"}
{"SMILES": "Cc1cc(C(=O)Nc2nc3cccc(C)c3n2[C@H]2CCCCN(C(=O)/C=C/CN(C)C)C2)ccn1", "organism": "Trypanosoma brucei", "test": "cell growth, Alamar Blue", "system": "2T1 overexpressing Tb927.8.5730", "scale": "baseline: parental 2T1", "endpoint": "EC50 fold shift", "value": "0.74 fold and 0.82 fold"}
{"SMILES": "CC[C@H](C)CCCCC(=O)N[C@@H](CCN)C(=O)N[C@H](C(=O)N[C@@H](CCN)C(=O)N[C@H]1CCNC(=O)[C@H]([C@@H](C)O)NC(=O)[C@H](CCN)NC(=O)[C@H](CCN)NC(=O)[C@H](CC(C)C)NC(=O)[C@@H](CC(C)C)NC(=O)[C@H](CCN)NC1=O)[C@@H](C)O", "organism": "Escherichia coli", "test": "daily serial passaging", "system": "ATCC 8739", "setting": "highest sub-MIC, 37 days", "scale": "baseline: initial MIC", "endpoint": "MIC fold change", "value": 1.42}
{"SMILES": "C[N+]1=C2C(c3ccc([N+](=O)[O-])cc3)=[N+]([O-])c3ccccc3N2CCC1", "organism": "Bacteroides fragilis", "endpoint": "MIC", "value": "0.125 to 2 µg/mL"}
{"SMILES": "CCOC(=O)C1(Cc2ccc(C#N)cc2F)Oc2cc(F)ccc2N(Cc2ccc(C#N)cc2F)C1=O (stereo not shown)", "organism": "Amaranthus retroflexus", "test": "fresh weight, greenhouse postemergence", "setting": "postemergence, 150 g ai/ha, 21 days", "endpoint": "inhibition", "value": "67.6 ± 3.92%"}
{"note": "Excerpt of the above:"}
{"SMILES": "CC(C)C[C@H](NC(=O)[C@@H](N)CO)C(=O)N[C@@H](Cc1c[nH]c2ccccc12)C(=O)N[C@@H](CCC(=O)O)C(=O)N[C@@H](CC(N)=O)C(=O)N[C@@H](Cc1ccccc1)C(=O)N[C@@H](CCCCN)C(=O)N[C@@H](CC(N)=O)C(=O)N[C@@H](C)C(=O)NCC(=O)N[C@@H](CCCCN)C(N)=O", "organism": "all tested microorganisms", "endpoint": "geometric mean MIC", "value": "256 µM"}
{"SMILES": "CCCCCCCCC=CCCCCCCCCNC(=O)C(N)Cc1ccc(OP(=O)(O)COC(CO)Cn2ccc(N)nc2=O)cc1 (stereo not shown)", "organism": "varicella-zoster virus", "test": "viral replication", "system": "VZV-ORF57-Luc, mouse", "setting": "dose not given", "endpoint": "duration of rebound suppression", "value": "≤ 11 days"}
